Experimental data collected from several papers.
Compare with care: the assays were run in different laboratories. In brackets after ≈: the same amount, converted by molar mass.
Organism: Bacillus subtilis

COc1c(NC(=O)c2ccc(NC(=O)c3ccc(NC(=O)[C@H](Cc4c[nH]nn4)NC(=O)c4ccc(NC(=O)/C(C)=C/c5ccc(O)cc5)cc4)cc3)cc2)ccc(C(=O)O)c1O — MIC (broth microdilution; DSM 10): 4 µg/mL (≈ 4.77 µM)
C#CCOc1ccc(CN[C@@]2(C)C[C@H](O[C@H]3[C@H](Oc4c5cc6cc4Oc4ccc(cc4Cl)[C@@H](O)[C@@H](NC(=O)[C@@H](CC(C)C)NC)C(=O)N[C@@H](CC(N)=O)C(=O)N[C@H]6C(=O)N[C@H]4C(=O)N[C@H](C(=O)N[C@H](C(=O)O)c6cc(O)cc(O)c6-c6cc4ccc6O)[C@H](O)c4ccc(c(Cl)c4)O5)O[C@H](CO)[C@@H](O)[C@@H]3O)O[C@@H](C)[C@H]2O)cc1OC — MIC (broth microdilution; 168, cation-adjusted Mueller-Hinton broth; 20 to 24 h, 37 °C, 0.002% polysorbate 80): 0.5 µg/mL (≈ 0.308 µM)
CCOc1c(NC(=O)c2ccc(NC(=O)c3ccc(NC(=O)[C@H](Cc4c[nH]nn4)NC(=O)c4ccc(NC(=O)/C(C)=C/c5ccc(O)cc5)cc4)cc3)c(OCC)c2O)ccc(C(=O)O)c1O — MIC (broth microdilution; DSM 10): 0.031 µg/mL (≈ 0.034 µM)
CC[C@H]1OC(=O)[C@H](C)[C@@H](OC(=O)Cc2ccccc2Cl)[C@H](C)[C@@H](O[C@@H]2O[C@H](C)C[C@H](N(C)C)[C@H]2O)[C@](C)(OC)C[C@@H](C)C(=O)[C@H](C)[C@@H](O)[C@]1(C)O — MIC (microbial growth; DSM402): 2 µg/mL (≈ 2.69 µM)
CN[C@H](CC(C)C)C(=O)N[C@H]1C(=O)N[C@@H](CC(N)=O)C(=O)N[C@H]2C(=O)N[C@H]3C(=O)N[C@H](C(=O)N[C@H](C(=O)O)c4cc(O)cc(O)c4-c4cc3ccc4O)[C@H](O)c3ccc(c(Cl)c3)Oc3cc2cc(c3O[C@@H]2O[C@H](CO)[C@@H](O)[C@H](O)[C@H]2O[C@H]2C[C@](C)(NCc3ccc(OCc4cn(CCCCC(=O)N[C@H](C(=O)N[C@@H](CCN)C(=O)N[C@H]5CCNC(=O)[C@H]([C@@H](C)O)NC(=O)[C@H](CCN)NC(=O)[C@H](CCN)NC(=O)[C@H](CC(C)C)NC(=O)[C@@H](CC(C)C)NC(=O)[C@H](CCN)NC5=O)[C@@H](C)O)nn4)c(OC)c3)[C@H](O)[C@H](C)O2)Oc2ccc(cc2Cl)[C@H]1O — MIC (broth microdilution; 168, cation-adjusted Mueller-Hinton broth; 20 to 24 h, 37 °C, 0.002% polysorbate 80): 0.25 µg/mL (≈ 0.0934 µM)
O=CCNCCOn1c(=O)n(OCCNCCO)c(=O)n(OCCNCCOn2c(=O)n(OCCNCCO)c(=O)n(OCCNCCO)c2=O)c1=O — MIC (microbial growth, broth dilution): 1 µg/mL (≈ 1.3 µM)
CC[C@H]1OC(=O)[C@H](C)[C@@H](OC(=O)Cc2c(F)cc([N+](=O)[O-])cc2F)[C@H](C)[C@@H](O[C@@H]2O[C@H](C)C[C@H](N(C)C)[C@H]2O)[C@](C)(OC)C[C@@H](C)C(=O)[C@H](C)[C@@H](O)[C@]1(C)O — MIC (microbial growth; DSM402): 0.1 µg/mL (≈ 0.127 µM)
COc1cc(C(=O)O)ccc1NC(=O)c1ccc(NC(=O)c2ccc(NC(=O)[C@H](Cc3c[nH]nn3)NC(=O)c3ccc(NC(=O)/C(C)=C/c4ccc(O)cc4)cc3)cc2)c(OC)c1O — MIC (broth microdilution; DSM 10): 0.25 µg/mL (≈ 0.288 µM)
C#CCOc1ccc(CN[C@@]2(C)C[C@H](O[C@H]3[C@H](Oc4c5cc6cc4Oc4ccc(cc4Cl)[C@@H](O)[C@@H](NC(=O)[C@@H](CC(C)C)NC)C(=O)N[C@@H](CC(N)=O)C(=O)N[C@H]6C(=O)N[C@H]4C(=O)N[C@H](C(=O)N[C@H](C(=O)N[C@@H](CCCNC(=N)N)C(N)=O)c6cc(O)cc(O)c6-c6cc4ccc6O)[C@H](O)c4ccc(c(Cl)c4)O5)O[C@H](CO)[C@@H](O)[C@@H]3O)O[C@@H](C)[C@H]2O)cc1OC — MIC (broth microdilution; 168, cation-adjusted Mueller-Hinton broth; 20 to 24 h, 37 °C, 0.002% polysorbate 80): 0.016 µg/mL (≈ 0.009 µM)
CC[C@H]1OC(=O)[C@H](C)[C@@H](OC(=O)Cc2ccc3c(c2)OCO3)[C@H](C)[C@@H](O[C@@H]2O[C@H](C)C[C@H](N(C)C)[C@H]2O)[C@](C)(OC)C[C@@H](C)C(=O)[C@H](C)[C@@H](O)[C@]1(C)O — MIC (microbial growth; DSM402): 0.5 µg/mL (≈ 0.665 µM)
